Assay results of several laboratories.
Numbered parts are unrelated; each lists some results of a single study.

Set 1
Target: Myc proto-oncogene protein, bHLH-zipper, MAX partner unstated (MYC, Homo sapiens, UniProt P01106, residues 368-449)
Chain of UniProt P01106 (368-449, looked up): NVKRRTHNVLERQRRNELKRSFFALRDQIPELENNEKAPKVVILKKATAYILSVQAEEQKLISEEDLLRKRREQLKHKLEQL
Method: protein-binding microarray
Molecule type: double-stranded DNA, one strand shown
Matrix: in vitro
Tested at: not given
Notes: k-mer, scored over probes, only values ≥0.25
Direction: higher = stronger binding
| Oligonucleotide | E-score |
| --- | --- |
| CATGTGAA | 0.379 |
| CACATGAC | 0.435 |
| ACACATGA | 0.367 |

Set 2
Target: Ras GTPase-activating protein-binding protein 1, full length (G3BP1, Homo sapiens, UniProt Q13283)
Chain of UniProt Q13283 (whole entry, looked up): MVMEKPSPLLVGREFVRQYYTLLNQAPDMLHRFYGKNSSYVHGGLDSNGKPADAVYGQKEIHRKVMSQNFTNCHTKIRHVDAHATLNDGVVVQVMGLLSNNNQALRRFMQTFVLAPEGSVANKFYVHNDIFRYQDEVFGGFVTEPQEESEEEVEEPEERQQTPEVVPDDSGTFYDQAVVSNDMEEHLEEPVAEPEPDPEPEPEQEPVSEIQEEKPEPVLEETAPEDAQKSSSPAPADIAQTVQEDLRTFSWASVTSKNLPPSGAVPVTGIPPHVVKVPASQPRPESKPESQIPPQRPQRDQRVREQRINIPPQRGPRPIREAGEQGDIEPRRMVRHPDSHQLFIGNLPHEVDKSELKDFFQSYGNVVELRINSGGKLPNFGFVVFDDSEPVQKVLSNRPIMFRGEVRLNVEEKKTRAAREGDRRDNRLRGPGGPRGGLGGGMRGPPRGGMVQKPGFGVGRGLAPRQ
Method: RNA Bind-n-Seq
Molecule type: RNA
Matrix: in vitro
Tested at: 200 nM
Notes: whole 134-nt RNA, ends assumed
With: 150 mM LiCl
Reference: input library
Direction: higher = stronger binding
Each molecule: 7-deaza-guanosine replaces G
| Oligonucleotide | log2 enrichment |
| --- | --- |
| GGGAGUUCUACAGUCCGACGAUCGCCACCAUGCCCACCUAGUUUUUGCAUUUUUAGUGGAGGUGUGGUUUCACUGUGUUGGCCAGGCUGGUCUCUUAACUCCUGACCUCAGGUUGGAAUUCUCGGGUGUCAAGG | -0.454 |
| GGGAGUUCUACAGUCCGACGAUCCUCAAGUCCUGUGCUACACAUCGUAUGUACCGAAUCGGGUGGGUGGGUUUGGGAAAGUAUUAUGUUACGCCGUUCGGAUCUGCACUUCCAUGGAAUUCUCGGGUGUCAAGG | -0.465 |
| GGGAGUUCUACAGUCCGACGAUCCCUGUGCUACACAUCGUAUGUACCGAAUCGGGGAGGGGAAAAAAAGGGGUUUUUUUGGGGAAAGUAUUAUGUUACGCCGUUCGGAUCUGCUGGAAUUCUCGGGUGUCAAGG | 0.464 |

Set 3
Target: Prothrombin, mature alpha-thrombin (F2, Homo sapiens, UniProt P00734)
Method: aptamer microarray, sandwich
Molecule type: DNA with 2'F-ANA
Matrix: in vitro
Tested at: 200 nM
Notes: whole 15-mer aptamer, many near background
With: Cy3 exosite-II aptamer, 400 nM
Direction: higher = stronger binding
Oligonucleotide: GGTTGGTGTGGTTGG
| Modification | mean fluorescence intensity [a.u.] |
| --- | --- |
| 2'F-ANA at 2 3 6 12 14 | 421 |
| 2'F-ANA at 3 5 6 8 9 10 12 14 | 77.7 |
| 2'F-ANA at 1 3 4 9 10 12 13 14 | 144 |
| 2'F-ANA at 1 2 4 5 6 7 9 12 13 | 65.8 |
| 2'F-ANA at 2 3 10 | 466 |

Mixed results
| Molecule | target | test | test system | conditions | scale | quantity | value |
| --- | --- | --- | --- | --- | --- | --- | --- |
| PhoQ, residues 284 288 289 292 302 303 NLALSC | PhoP, residues 12 14 15 18 19 LQHIR (Escherichia coli, UniProt P23836) | Sort-seq, item: YFP reporter | E. coli | PhoQ-PhoP variant library, with: 10 µM Mg2+ | reference: high Mg2+ state, higher = stronger signaling | fold induction | 2.77 |

Some of these lines once more (set 2):
| Oligonucleotide | log2 enrichment |
| --- | --- |
| GGGAGUUCUACAGUCCGACGAUCGCCACCAUGCCCACCUAGUUUUUGCAUUUUUAGUGGAGGUGUGGUUUCACUGUGUUGGCCAGGCUGGUCUCUUAACUCCUGACCUCAGGUUGGAAUUCUCGGGUGUCAAGG | -0.454 |
| GGGAGUUCUACAGUCCGACGAUCCUCAAGUCCUGUGCUACACAUCGUAUGUACCGAAUCGGGUGGGUGGGUUUGGGAAAGUAUUAUGUUACGCCGUUCGGAUCUGCACUUCCAUGGAAUUCUCGGGUGUCAAGG | -0.465 |
